Results collected from several papers.
Lines come from different studies, so protocols differ.
UniProt Q14653, sequence (whole entry, unmodified, looked up): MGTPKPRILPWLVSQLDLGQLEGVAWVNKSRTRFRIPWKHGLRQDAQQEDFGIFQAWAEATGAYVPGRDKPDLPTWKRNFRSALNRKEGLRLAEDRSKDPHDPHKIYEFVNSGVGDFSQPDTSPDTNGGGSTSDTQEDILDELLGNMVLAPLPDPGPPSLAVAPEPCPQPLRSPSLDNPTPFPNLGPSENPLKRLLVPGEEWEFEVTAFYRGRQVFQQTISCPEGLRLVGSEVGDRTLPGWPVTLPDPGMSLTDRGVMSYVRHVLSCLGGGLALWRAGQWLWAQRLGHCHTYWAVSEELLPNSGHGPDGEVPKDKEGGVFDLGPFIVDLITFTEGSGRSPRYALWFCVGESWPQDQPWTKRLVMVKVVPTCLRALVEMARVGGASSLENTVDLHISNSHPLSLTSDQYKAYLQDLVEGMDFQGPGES
UniProt Q9UJQ4, sequence (whole entry, looked up): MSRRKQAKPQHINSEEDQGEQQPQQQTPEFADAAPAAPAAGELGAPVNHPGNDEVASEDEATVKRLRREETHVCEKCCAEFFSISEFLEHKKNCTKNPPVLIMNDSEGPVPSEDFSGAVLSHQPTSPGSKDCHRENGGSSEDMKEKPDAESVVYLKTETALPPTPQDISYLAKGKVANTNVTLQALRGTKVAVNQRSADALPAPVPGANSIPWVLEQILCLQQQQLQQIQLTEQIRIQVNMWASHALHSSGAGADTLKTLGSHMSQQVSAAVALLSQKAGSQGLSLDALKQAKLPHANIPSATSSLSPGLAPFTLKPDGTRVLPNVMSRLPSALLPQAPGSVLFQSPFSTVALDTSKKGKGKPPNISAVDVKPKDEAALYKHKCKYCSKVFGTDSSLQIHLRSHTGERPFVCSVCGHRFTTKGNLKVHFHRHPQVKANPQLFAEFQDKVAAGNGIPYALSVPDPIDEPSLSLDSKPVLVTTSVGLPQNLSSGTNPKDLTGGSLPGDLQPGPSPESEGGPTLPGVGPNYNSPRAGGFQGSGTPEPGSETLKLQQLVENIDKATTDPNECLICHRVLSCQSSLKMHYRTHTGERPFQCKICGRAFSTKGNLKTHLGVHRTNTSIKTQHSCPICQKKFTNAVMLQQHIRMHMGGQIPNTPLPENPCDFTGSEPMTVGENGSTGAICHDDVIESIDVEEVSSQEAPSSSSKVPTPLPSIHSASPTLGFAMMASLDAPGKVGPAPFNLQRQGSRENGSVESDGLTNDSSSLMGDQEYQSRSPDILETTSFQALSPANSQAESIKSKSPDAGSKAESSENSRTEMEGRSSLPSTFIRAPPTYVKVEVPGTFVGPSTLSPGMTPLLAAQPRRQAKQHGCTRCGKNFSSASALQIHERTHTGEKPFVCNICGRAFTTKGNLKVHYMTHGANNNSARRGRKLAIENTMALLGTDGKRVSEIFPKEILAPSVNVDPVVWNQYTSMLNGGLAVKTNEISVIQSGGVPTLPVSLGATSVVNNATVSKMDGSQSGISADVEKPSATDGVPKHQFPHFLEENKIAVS
UniProt P49711, sequence (whole entry, looked up): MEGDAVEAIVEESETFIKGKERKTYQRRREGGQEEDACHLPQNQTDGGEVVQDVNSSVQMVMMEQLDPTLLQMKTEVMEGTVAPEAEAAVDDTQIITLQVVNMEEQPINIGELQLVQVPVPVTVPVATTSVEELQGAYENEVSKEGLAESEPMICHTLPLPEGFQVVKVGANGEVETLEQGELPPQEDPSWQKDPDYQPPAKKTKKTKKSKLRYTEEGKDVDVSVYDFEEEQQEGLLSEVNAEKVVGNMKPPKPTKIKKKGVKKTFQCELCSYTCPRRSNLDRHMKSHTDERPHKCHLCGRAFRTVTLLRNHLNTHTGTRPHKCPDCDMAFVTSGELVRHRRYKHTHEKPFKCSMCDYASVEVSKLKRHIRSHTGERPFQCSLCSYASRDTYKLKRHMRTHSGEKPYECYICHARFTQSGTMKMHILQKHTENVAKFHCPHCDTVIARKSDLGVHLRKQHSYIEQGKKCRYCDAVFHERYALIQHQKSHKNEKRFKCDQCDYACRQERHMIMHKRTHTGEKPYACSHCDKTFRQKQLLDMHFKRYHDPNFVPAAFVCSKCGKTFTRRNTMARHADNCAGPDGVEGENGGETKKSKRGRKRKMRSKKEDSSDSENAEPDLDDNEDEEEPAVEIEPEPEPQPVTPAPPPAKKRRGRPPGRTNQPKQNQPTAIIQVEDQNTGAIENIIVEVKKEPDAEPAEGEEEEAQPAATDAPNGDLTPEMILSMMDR

AATTGCCA — E-score (Sal-like protein 4, full length isoform A (SALL4, Homo sapiens, UniProt Q9UJQ4, residues 1-1053); universal PBM; double-stranded DNA, one strand shown, in vitro; 600 nM, 8-mer, flanks averaged, mean of replicates; higher = stronger binding): 0.203
CGACGAAC — E-score (Histone acetyltransferase KAT6A, both winged helices, GST fusion (KAT6A, Homo sapiens, UniProt Q92794, residues 1-181); protein binding microarray; double-stranded DNA, one strand shown, in vitro; not given, 8-mer, flanks averaged, mean of 2 arrays, mostly near background; reference: not given, higher = stronger binding): 0.178
PhoQ, residues 284 288 289 292 302 303 NLMGRA — fold induction (PhoP, residues 12 14 15 18 19 QYCSL (Escherichia coli, UniProt P23836); Sort-seq, refers to: YFP reporter; E. coli; PhoQ-PhoP variant library, together with: 10 µM Mg2+; reference: high Mg2+ state, higher = stronger signaling): 12.1
AAAGTATA — E-score (Transcriptional repressor CTCF (CTCF, Homo sapiens, UniProt P49711, residues 1-727, full length assumed); protein-binding microarray; double-stranded DNA, one strand shown, in vitro; not given, k-mer, scored over probes, only values ≥0.25; higher = stronger binding): 0.283
GAGCCAGC — E-score (Histone acetyltransferase KAT6A, winged helix 2, GST fusion (KAT6A, Homo sapiens, UniProt Q92794, residues 85-181); protein binding microarray; double-stranded DNA, one strand shown, in vitro; not given, 8-mer, flanks averaged, mean of 2 arrays, mostly near background; reference: not given, higher = stronger binding): 0.0675
GCCTAGCACGACGATATCAGACAGGAGACGTGCTAGGTCTTGATTCGCTTGACGCTGCTG — fitted relative affinity (Interferon regulatory factor 3, full length, phosphomimetic (IRF3, Homo sapiens, UniProt Q14653, residues 1-427, S386D/S396D/S398D/S402D/T404D/S405D); protein-binding microarray; double-stranded DNA, one strand shown, in vitro; 2540 nM top, 60-bp whole probe, together with: salmon DNA 0.4 mg/ml; reference: random background probes, higher = stronger binding): 0.0897 z-score
